# Measurements collected from several papers.
# Every numbered part comes from another study and shows a few of its results, in no order.

# Block 1 — method: protein-binding microarray; form: double-stranded DNA, one strand shown; medium: in vitro; tested at: 250 nM; notes: 60-bp whole probe; added: salmon DNA 0.4 mg/ml; reference: random background probes; direction: higher = stronger binding; constant ends, left off below: GCCTAGCAC … GTCTTGATTCGCTTGACGCTGCTG
# Target: Interferon regulatory factor 5, full length, phosphomimetic (IRF5, Homo sapiens, UniProt Q13568-2, residues 1-514, K96S/S451D/S453D/S456D/S462D)
Strand,log fluorescence [z-score]
TTAGGACTTGGGTATCGGTTAGTGCTA,4.22
GGAGAGTTCCAGGAGGTCGAGTGCTAG,-0.412
TTAGGGTTCCTTTTCCTTTAGTGCTAG,0.314
TTTTTTTTTTTTTTTGGAATGTGCTAG,1.32
GACGGTATCAGGACTGGGGACGTGCTA,0.163
TTAGGACTGGGGTTTCGGTTAGTGCTA,6.01

# Block 2 — method: RNA Bind-n-Seq; form: RNA; medium: in vitro; tested at: 200 nM; notes: whole 134-nt RNA, ends assumed; added: 150 mM LiCl; reference: input library; direction: higher = stronger binding; all molecules: 7-deaza-guanosine replaces G
# Target: Fragile X messenger ribonucleoprotein 1, C-terminal low-complexity region (Fmr1, Mus musculus, UniProt P35922)
Strand,log2 enrichment
GGGAGUUCUACAGUCCGACGAUCUUCCCACAGCCCAAAAAUCUUCUCAACAGUGUGAUUGGAAGAGCCCUCGGCAUCUCACAUGCAAAAGACAAACUAGUCUACGUGCACACAUGGAAUUCUCGGGUGUCAAGG,0.431
GGGAGUUCUACAGUCCGACGAUCUGGCCCGGGUGGCAUGCGGGGAGGAAGAGGUGGCCUCAUGGAUCGUGGUGGUCCCGGUGGAAUGUUCAGAGGUGGCCGUGGUGGAGACAGUGGAAUUCUCGGGUGUCAAGG,-0.6
GGGAGUUCUACAGUCCGACGAUCCACAGACAACACGCACCCACACAGACACAGAGGGUAGGGGUUGGGAUGGGGACAGGGUGCACAGCAGGGCGGGGUAGGACCCCAGCCCCUUGGAAUUCUCGGGUGUCAAGG,-0.548

# Block 3 — method: RNA Bind-n-Seq; form: RNA; medium: in vitro; tested at: 365 nM; reference: no-protein control; direction: higher = stronger binding
# Target: RNA binding protein fox-1 homolog 2, RRM domain, GST-SBP tag (RBFOX2, Homo sapiens, UniProt O43251-10, residues 100-194)
# Notes: natural RNA segment, single round, ends assumed
# Constant ends, left off below: GGGAGUUCUACAGUCCGACGAUC … UGGAAUUCUCGGGUGCCAA
# Target sequence (chain): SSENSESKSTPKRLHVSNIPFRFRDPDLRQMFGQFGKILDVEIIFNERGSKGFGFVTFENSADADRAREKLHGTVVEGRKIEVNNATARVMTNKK
Strand,RBNS enrichment (R)
CACCCUCGAGCGGGGUUCCCCUCAUUGUACAGAUGGGGCAGGACCCAGCACGCUGCUGGCAGAGAUGGUUUGAGAACACAUCCAAGCCAGUCCCCCCAGCCCAGCUUCCC,0.235
AUGUAAUUAAAGGCUUUUCUUAAUAUGUUUUAACCAAAGAUGUGGAGCAAUCCAAGCCACAUAUCUUCUACAUCAAAUUUUUCCAUUUUGGUUAUUUUCAUAAUCUGGUA,0.392
AUUUUACUCUGAAUUUGUUUAUUAAAAGACUUUUGAACAUGAAAUGAUUAGUAUUACUUGAAUGCAUCCAGAGGAUAUUUAAACCAAAAUGAAAAACCAGAAGGCCAUUU,0.899
UAACUCUGGUAAAGCAUCCUGUGGAGGGAGAGGAGAGCCCAGUCAUUUGCUUAGAUGGUGUUUGUGGGAUCACCUGCAGAUUUAAAGCCUACUCUGCCACAGACUCGAGU,1.03
UUUGUUUGGGGUUUUUUUGUUGUUGUUGGUUUUUGUUUUUGUUUUCGUUUUUGCAUGAAUCGCGAUAUUUUGUACUUUUAAAAACUCCAACUUCCACAAAACAACUCAAG,50.1

# Mixed results
Molecule,target,assay,test system,setting,how to read,endpoint,result
"PhoQ, residues 284 288 289 292 302 303 NSMLDC","PhoP, residues 12 14 15 18 19 HLGGL (Escherichia coli, UniProt P23836)","Sort-seq, measured: YFP reporter",E. coli,"PhoQ-PhoP variant library, added: 10 µM Mg2+","reference: high Mg2+ state, higher = stronger signaling",fold induction,15.2

# Some of these lines once more (block 1):
Strand,log fluorescence [z-score]
TTTTTTTTTTTTTTTGGAATGTGCTAG,1.32
GACGGTATCAGGACTGGGGACGTGCTA,0.163
